Measured values gathered from unrelated publications.
Compare with care: the assays were run in different laboratories. Several values in a cell are separate wells, animals, samples, runs or records. ± gives the spread as reported.
Chain of UniProt Q08881 (whole entry, looked up): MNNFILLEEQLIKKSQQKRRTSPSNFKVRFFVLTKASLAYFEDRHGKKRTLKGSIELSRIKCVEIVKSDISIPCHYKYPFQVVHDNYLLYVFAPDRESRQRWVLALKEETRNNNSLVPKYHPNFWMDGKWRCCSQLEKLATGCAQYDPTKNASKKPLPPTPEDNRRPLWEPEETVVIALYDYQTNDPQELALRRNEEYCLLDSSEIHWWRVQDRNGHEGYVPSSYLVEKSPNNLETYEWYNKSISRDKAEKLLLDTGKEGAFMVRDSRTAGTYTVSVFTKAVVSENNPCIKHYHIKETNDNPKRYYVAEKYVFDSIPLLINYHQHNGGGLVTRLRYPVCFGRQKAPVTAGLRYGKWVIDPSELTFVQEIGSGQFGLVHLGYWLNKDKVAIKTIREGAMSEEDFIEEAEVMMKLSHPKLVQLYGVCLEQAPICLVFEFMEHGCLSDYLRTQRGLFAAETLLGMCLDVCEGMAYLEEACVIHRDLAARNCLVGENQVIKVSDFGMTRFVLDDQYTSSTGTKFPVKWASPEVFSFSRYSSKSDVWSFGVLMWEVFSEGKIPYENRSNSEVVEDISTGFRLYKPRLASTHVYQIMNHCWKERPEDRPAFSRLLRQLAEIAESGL

SMILES | tested on | test | system | setting | how to read | endpoint | result
C=C(NC(=O)c1csc(-c2nc3c(cc2O)-c2nc(cs2)C(=O)NC(C(C)O)C(=O)NC(=C(C)OC)c2nc(cs2)C(=O)NC2c4nc(cs4)C(=O)NC(COC(=O)c4c5c6c(cccc6n4O)COC(=O)C(OC4CC(C)(O)C(N(C)C)C(C)O4)C2OC5)c2nc-3cs2)n1)C(N)=O (stereo not drawn) | – | – | ICR mice, Streptococcus pneumoniae ATCC 49169 infected, immunocompromised, blood | intravenous, 8 mg/kg three times daily | – | AUC(0-t) | 0.608 µM·h
COC(=O)Nc1nc2cc(C(O)c3ccc(F)cc3)ccc2[nH]1 (stereo not drawn) | Salmonella typhimurium | Ames preincubation test | TA1537 | 54.7 µg/plate, without S9 | – | revertants | 11.3 revertants/plate
CCCC[C@@H](CSS(=O)(=O)O)NCCC | Schistosoma mansoni | perfusion day 62 | infected Swiss Webster mice | 100 mg/kg | – | body weight | 31.2 g and 34.7 g and 32.2 g
COC1CN([C@H]2CC[C@H]([C@@]3(C)Oc4c(Cl)cc(C(=O)NCc5c(SC)cc(C)[nH]c5=O)c(C)c4O3)CC2)C1 | – | RNA-seq, refers to: TMEM108 mouse homolog | mouse, HT-1376 xenograft, whole blood | dose not given | reference: vehicle | log2 fold change | 2.6
CCCCCCC(CSS(=O)(=O)O)NC(C)C (stereo not drawn) | Schistosoma mansoni | perfusion day 57 | infected Swiss Webster mice | 100 mg/kg | – | body weight | 35 g and 31.9 g and 34.7 g
N=C(N)NCCC[C@@H]1NC(=O)[C@H](CCCNC(=N)N)NC(=O)[C@@H](C(c2ccccc2)c2ccccc2)NC(=O)[C@H](Cc2c[nH]c3ccccc23)NC(=O)[C@@H](C(c2ccccc2)c2ccccc2)NC(=O)[C@@H](CCCNC(=N)N)NC(=O)[C@@H](CCCNC(=N)N)NC1=O | human liver cells | MTS | – | 100 µg/mL, 24 h | – | viability | > 90%
C[C@@H]1O[C@@H](O[C@@H]2[C@@H](O)[C@H](O)[C@@H](CO)O[C@H]2c2c(O)cc(O)c3c(=O)cc(-c4ccc(O)cc4)oc23)[C@H](O)[C@H](O)[C@H]1O | Caco-2 monolayer | transwell permeability | – | 100 µg/mL, apical to basolateral, HBSS, DMSO 1%, with: digoxin 5 ng/mL | reference: digoxin alone | Papp increase | 12.1%
C=CC(=O)Nc1cccc(Cn2ncc3cnc(Nc4cnn(CCOC)c4)nc32)c1 | GAK human | binding, KINOMEscan | – | 100 nM | lower = stronger binding | percent of control | 95%
CNC(=O)C1CCCN(C(=O)C2CC3CCC2N3C(=O)[C@@H]2C[C@@H](O)CN2C(=O)NCc2cccc(Cl)c2F)C1 (mixture of isomers) | CYP3A4 (human) | inhibitor, time-dependent inhibition | – | 5.56 µM, preincubated without NADPH, with: testosterone substrate | reference: negative control | remaining activity | 102%
Cc1ncsc1-c1ccc(C(C)NC(=O)C2CC(O)CN2C(=O)C(NC(=O)CCCCCCCCCCN2CCCC(Nc3ncc(Cl)c(Nc4ccccc4S(=O)(=O)C(C)C)n3)C2)C(C)(C)C)cc1 (stereo not drawn) | 22Rv1 | RNA-seq, refers to: ZCCHC2 mRNA | – | concentration not given | reference: DMSO | log2 fold change | -1.65
CC(C)Cc1ccc(C(C)C(=O)N[C@@H](CCCCNC(=O)CCOCCOCCOCCOCCOCCOCCNC(=O)CN2CCN(CC(=O)[O-])CCN(CC(=O)[O-])CCN(CC(=O)[O-])CC2)C(=O)Nc2cccc3c(C(=O)NCC(=O)N4CC(F)(F)C[C@H]4C#N)ccnc23)cc1.[177Lu+3] (stereo partly drawn) | U-87 MG tumour model | – | host not given, bone | 48 h, tumour-bearing | – | tracer uptake | 1.38 %ID/g
Cc1nn(-c2cccc(N)c2)c(=O)c2cnc(Nc3ccc(N4CCNCC4)cc3)nc12 | ITK (Homo sapiens, UniProt Q08881) | enzyme activity, inhibitor | – | – | – | IC50 | > 10000 nM
N#C[C@@H]1CC(F)(F)CN1C(=O)CNC(=O)c1ccnc2c(NC(=O)[C@H](CCCCNC(=O)CCOCCOCCOCCOCCOCCOCCNC(=O)CN3CCN(CC(=O)[O-])CCN(CC(=O)[O-])CCN(CC(=O)[O-])CC3)NC(=O)CCCc3ccc(I)cc3)cccc12.[177Lu+3] | U-87 MG tumour model | – | host not given, liver | 24 h, tumour-bearing | – | tracer uptake | 3.97 %ID/g
Nc1ncc(-c2cc(-c3cnn(CC(F)(F)F)c3)ncc2F)nc1C(=O)NC1CNCC(F)C1 (stereo not drawn) | PRKX | KINOMEscan | – | 1 µM | reference: DMSO control | remaining binding | 23%
CN1CCCNC(=O)c2cccc(c2)C(=O)NCCCN(C)CCCNc2cccc3c2C(=O)c2cccc(c2C3=O)NCCC1 | HEK293 | cell growth or viability, CCK-8 | – | 1.5 µM, 48 h | – | viability | 43.8%
CCN(CC)CC#CCNc1ccnc2cc(Cl)ccc12 | Salmonella typhimurium | mini-Ames test | TA100 | 125.0 µg/well, with rat liver S9 | – | revertants | 25 revertants/well and 22 revertants/well
CC[C@H](C)[C@@H]1NC(=O)[C@H](Cc2ccc(O)cc2)NC(=O)CCCSC[C@@H](C(=O)N(CC(=O)N[C@@H](CC(C)C)C(=O)NCC(N)=O)Cc2ccc(F)cc2)NC(=O)[C@H](CC(N)=O)NC(=O)[C@H](CCC(N)=O)NC1=O | – | – | healthy human females, plasma | intranasal, 200 µg single dose | – | Cmax | 0.095 ng/mL
O=C1NC2(CC2)COc2ncc(F)cc2[C@H]2COCCN2c2ccn3ncc1c3n2 | CHL cells | chromosomal aberration test | – | 5 µg/mL, 24 h, without S9 mix | reference: solvent control | relative population doubling | 59.1%
CCCCC(CSS(=O)(=O)O)NCC(C)C (stereo not drawn) | Schistosoma mansoni | perfusion day 35 | infected Swiss Webster mice | 100 mg/kg | – | body weight | 27.3 g and 25.5 g and 22.8 g
O=C1C2CC3CC1CC(C(=O)N1CCN(c4ccc([N+](=O)[O-])c5ncccc45)CC1)(C3)C2 | Escherichia coli | Ames test | WP2 uvrA pKM101 | 0.02 µg/well, with S9 | reference: vehicle | revertant fold increase | 0.9
Cc1cc(=O)c2c(O)c3c(O[C@@H]4O[C@H](CO)[C@@H](O)[C@H](O)[C@H]4O)cc(O)cc3cc2o1 | HK-2 co-cultured with HepaRG | MTT | – | 133.33 µM, 48 h | reference: untreated control | cell viability | 71.1 ± 9.69%
CC(C)C[C@@H](NC(=O)[C@@H](CC(C)C)NC(=O)[C@@H](CC(=O)O)NC(=O)[C@@H](CC(C)C)NC(=O)[C@@H](CC(C)C)NC(=O)[C@@H](CC(C)C)NC(=O)[C@H](NC(=O)[C@@H](CC(=O)O)NC(=O)[C@H](NC(=O)[C@H]1CCCN1C(=O)[C@@H](Cc1ccccc1)NC(=O)[C@@H](CC(C)C)NC(=O)[C@@H](CC(C)C)NC(=O)[C@@H](CC(=O)O)NC(=O)[C@@H](CC(C)C)NC(=O)[C@@H](Cc1ccc(O)cc1)NC(=O)[C@@H](C)NC(=O)[C@@H](CCCNC(=N)N)NC(=O)[C@@H](Cc1c[nH]c2ccccc12)NC(=O)[C@H]1CCCN1C(=O)[C@@H](CC(N)=O)NC(=O)[C@@H](CCC(N)=O)NC(=O)[C@@H](CC(=O)O)NC(=O)[C@@H](CC(=O)O)NC(=O)[C@@H](CSC1CC(=O)N(CCNC(=O)CN2CCN(CC(=O)O)CCN(CC(=O)O)CC2)C1=O)NC(=O)[C@@H](C)N)[C@H](C)O)[C@H](C)O)C(=O)N[C@H](Cc1c[nH]c2ccccc12)C(=O)O (stereo partly drawn) [fluorine-18 labelled] | – | – | female C57BL/6 mice, B16-F10 melanoma, tumor | intravenous, 4 h | – | tissue uptake | 8.23 %ID/g
N#C[C@@H]1CC(F)(F)CN1C(=O)CNC(=O)c1ccnc2c(NC(=O)[C@@H](N)CCCCNC(=O)CCOCCOCCOCCOCCOCCOCCNC(=O)CN3CCN(CC(=O)[O-])CCN(CC(=O)[O-])CCN(CC(=O)[O-])CC3)cccc12.[177Lu+3] | U-87 MG tumour model | – | host not given, blood | 24 h, tumour-bearing | – | tracer uptake | 0.01 %ID/g
CC(C)OCCOCc1ccc(OCC(O)CN(N=O)C(C)C)cc1 (stereo not drawn) | Salmonella typhimurium | Ames test | TA98 | 50 µg/plate, without metabolic activation | reference: solvent control | revertant fold increase | 1 fold
CCCC[C@H](NC(=O)CCCCCCCNC(=O)CN1CCN(CC(=O)O)CCN(CC(=O)O)CC1)C(=O)N[C@H]1CC(=O)NCCCC[C@@H](C(N)=O)NC(=O)[C@H](Cc2c[nH]c3ccccc23)NC(=O)[C@H](CCCNC(=N)N)NC(=O)[C@@H](Cc2ccccc2)NC(=O)[C@H](Cc2c[nH]cn2)NC1=O [technetium-99m labelled] | – | – | C57 mouse, tumor | intravenous, 0.037 MBq, 4 h | – | tissue uptake | 5.89 ± 1.71 %ID/g
N#C[C@@H]1CCCN1C(=O)CNC(=O)c1ccnc2ccc(OCCCN3CCN(C(=O)CCc4ccc5c(c4)CN4CCN6CC(=O)[O][68Ga-]([O]C(=O)C4)([O]5)[O]c4ccc(CCC(=O)N5CCN(CCCOc7ccc8nccc(C(=O)NCC(=O)N9CCC[C@H]9C#N)c8c7)CC5)cc4C6)CC3)cc12 | U-87 MG tumour model | – | host not given, pancreas | 2 h, tumour-bearing | – | tracer uptake | 2.66 %ID/g
C=C1CC[C@H](OCCCNC(=O)CCOCCOCCOCCOCCOCCOCCOCCOCCOCCOCCOCCOCCOCCOCCOCCOCCOCCOCCOCCOCCOCCOCCOCCOCCOCCOCCOCCOCCOCCOCCOCCOCCOCCOCCOCCOCCNC(=O)CCN2C(=O)CC(SC[C@H](NC(=O)[C@H](Cc3ccccc3)NC(=O)[C@H](CC(N)=O)NC(=O)[C@H](Cc3c[nH]cn3)NC(=O)[C@@H](NC(=O)[C@H](CC(=O)O)NC(=O)[C@H](CCC(N)=O)NC(=O)[C@H](CC(C)C)NC(=O)[C@H](CCCCN)NC(=O)[C@H](CCCCN)NC(=O)[C@H](CCCNC(=N)N)NC(=O)[C@H](CC(C)C)NC(=O)[C@H](Cc3c[nH]c4ccccc34)NC(=O)[C@H](CCC(=O)O)NC(=O)[C@@H](NC(=O)[C@H](CCCNC(=N)N)NC(=O)[C@H](CCC(=O)O)NC(=O)[C@H](CCSC)NC(=O)[C@H](CO)NC(=O)[C@H](CC(N)=O)NC(=O)[C@H](CC(C)C)NC(=O)[C@H](Cc3c[nH]cn3)NC(=O)[C@H](CCCCN)NC(=O)CNC(=O)[C@H](CC(C)C)NC(=O)[C@H](CC(N)=O)NC(=O)[C@H](Cc3c[nH]cn3)NC(=O)[C@H](CCSC)NC(=O)[C@H](CC(C)C)NC(=O)[C@H](CCC(N)=O)NC(=O)[C@@H](NC(=O)[C@H](CCC(=O)O)NC(=O)[C@H](CO)NC(=O)[C@@H](NC(=O)[C@@H](N)CO)C(C)C)[C@@H](C)CC)C(C)C)C(C)C)C(=O)O)C2=O)C/C1=C/C=C1\CCC[C@]2(C)[C@@H]([C@H](C)CCCC(C)(C)O)CC[C@@H]12 (stereo partly drawn) | – | – | male Sprague-Dawley rat, plasma | intravenous, 100 µg/kg, single dose | – | Tmax | 8.4 min
CNS(=O)(=O)Nc1nccc(Cc2c(C)c3ccc(Oc4ncccc4F)cc3oc2=O)c1F | OS-RC-2 | cell viability | – | 7 days | – | IC50 | 945 nM
N#C[C@@H]1CCCN1C(=O)CNC(=O)c1ccnc2ccc(OCCCN3CCN(C(=O)CCc4ccc5c(c4)CN4CCN(Cc6cc(CCC(=O)O)ccc6O)CC(=O)[O][Al-]([18F])([O]C(=O)C4)[O]5)CC3)cc12 (stereo partly drawn) | U-87 MG tumour model | – | host not given, intestine | 1 h, tumour-bearing | – | tracer uptake | 13.4 %ID/g
CC(C)C[C@H](NC(=O)[C@@H](CCCCNC(=O)[C@@H](Cc1ccccc1)NC(=O)CCCCCNC(=O)CN1CCN(CC(=O)O)CCN(CC(=O)O)CCN(CC(=O)O)CC1)NC(=O)[C@H](Cc1ccc(O)cc1)NC(=O)[C@H](CO)NC(=O)[C@H](Cc1c[nH]c2ccccc12)NC(=O)[C@H](Cc1c[nH]cn1)NC(=O)[C@@H]1CCC(=O)N1)C(=O)N[C@@H](CCCNC(=N)N)C(=O)N1CCC[C@H]1C(=O)NCC(N)=O [indium-111 labelled] | – | – | female athymic nude mice, blood | intravenous, 0.037 MBq, 2 h | – | tissue uptake | 0.06 ± 0.02 %ID/g

Repeated from above:
SMILES | tested on | test | system | setting | how to read | endpoint | result
CC(C)C[C@H](NC(=O)[C@@H](CCCCNC(=O)[C@@H](Cc1ccccc1)NC(=O)CCCCCNC(=O)CN1CCN(CC(=O)O)CCN(CC(=O)O)CCN(CC(=O)O)CC1)NC(=O)[C@H](Cc1ccc(O)cc1)NC(=O)[C@H](CO)NC(=O)[C@H](Cc1c[nH]c2ccccc12)NC(=O)[C@H](Cc1c[nH]cn1)NC(=O)[C@@H]1CCC(=O)N1)C(=O)N[C@@H](CCCNC(=N)N)C(=O)N1CCC[C@H]1C(=O)NCC(N)=O [indium-111 labelled] | – | – | female athymic nude mice, blood | intravenous, 0.037 MBq, 2 h | – | tissue uptake | 0.06 ± 0.02 %ID/g
COC(=O)Nc1nc2cc(C(O)c3ccc(F)cc3)ccc2[nH]1 (stereo not drawn) | Salmonella typhimurium | Ames preincubation test | TA1537 | 54.7 µg/plate, without S9 | – | revertants | 11.3 revertants/plate
